# Published values pooled from the literature.
# Sequences of proteins named here, by UniProt entry; tags and fusion partners are left off. Residues count along the entry.
# UniProt P46934, whole entry, looked up: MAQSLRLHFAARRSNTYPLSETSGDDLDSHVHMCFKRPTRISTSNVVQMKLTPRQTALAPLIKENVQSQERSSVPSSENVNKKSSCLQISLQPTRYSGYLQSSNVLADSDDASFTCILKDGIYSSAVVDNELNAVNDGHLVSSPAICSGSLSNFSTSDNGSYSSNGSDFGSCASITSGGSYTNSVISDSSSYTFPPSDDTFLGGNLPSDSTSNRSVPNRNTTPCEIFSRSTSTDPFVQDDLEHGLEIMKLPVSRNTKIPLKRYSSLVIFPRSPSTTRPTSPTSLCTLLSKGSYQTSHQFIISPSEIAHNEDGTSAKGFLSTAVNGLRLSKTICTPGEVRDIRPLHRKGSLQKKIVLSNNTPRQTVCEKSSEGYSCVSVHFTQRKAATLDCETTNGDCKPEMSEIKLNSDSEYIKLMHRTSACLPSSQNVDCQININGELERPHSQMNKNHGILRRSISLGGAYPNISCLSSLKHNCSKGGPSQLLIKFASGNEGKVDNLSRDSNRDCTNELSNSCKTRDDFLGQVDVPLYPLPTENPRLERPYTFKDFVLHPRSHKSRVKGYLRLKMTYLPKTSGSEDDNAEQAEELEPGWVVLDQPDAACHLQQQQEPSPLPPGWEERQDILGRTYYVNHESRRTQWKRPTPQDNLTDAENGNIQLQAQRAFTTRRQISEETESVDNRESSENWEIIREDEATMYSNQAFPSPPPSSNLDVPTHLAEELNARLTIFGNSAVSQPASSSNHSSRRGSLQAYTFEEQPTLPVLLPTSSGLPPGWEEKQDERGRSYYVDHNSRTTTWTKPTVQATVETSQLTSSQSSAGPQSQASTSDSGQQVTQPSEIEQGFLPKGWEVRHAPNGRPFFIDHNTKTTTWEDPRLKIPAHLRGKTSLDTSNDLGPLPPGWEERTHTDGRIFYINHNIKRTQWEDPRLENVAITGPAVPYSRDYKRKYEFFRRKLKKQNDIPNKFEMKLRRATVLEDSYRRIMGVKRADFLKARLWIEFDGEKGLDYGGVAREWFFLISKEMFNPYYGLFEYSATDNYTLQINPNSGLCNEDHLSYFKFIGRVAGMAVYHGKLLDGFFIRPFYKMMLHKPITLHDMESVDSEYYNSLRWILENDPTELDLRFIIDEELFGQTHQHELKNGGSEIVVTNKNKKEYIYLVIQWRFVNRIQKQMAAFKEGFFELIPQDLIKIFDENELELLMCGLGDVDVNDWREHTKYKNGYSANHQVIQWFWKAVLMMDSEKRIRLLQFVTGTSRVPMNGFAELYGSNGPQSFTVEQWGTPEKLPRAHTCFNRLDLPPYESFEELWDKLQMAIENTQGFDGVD
# UniProt P51812, 68-327 limits assumed: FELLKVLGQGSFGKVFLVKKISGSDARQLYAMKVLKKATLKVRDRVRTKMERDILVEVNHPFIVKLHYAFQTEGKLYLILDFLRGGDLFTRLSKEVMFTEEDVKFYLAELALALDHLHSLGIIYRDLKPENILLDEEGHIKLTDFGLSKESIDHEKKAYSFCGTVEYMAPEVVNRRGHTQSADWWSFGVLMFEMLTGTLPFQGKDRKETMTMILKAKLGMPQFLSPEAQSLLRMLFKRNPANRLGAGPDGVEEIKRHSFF
# UniProt P50750, whole entry: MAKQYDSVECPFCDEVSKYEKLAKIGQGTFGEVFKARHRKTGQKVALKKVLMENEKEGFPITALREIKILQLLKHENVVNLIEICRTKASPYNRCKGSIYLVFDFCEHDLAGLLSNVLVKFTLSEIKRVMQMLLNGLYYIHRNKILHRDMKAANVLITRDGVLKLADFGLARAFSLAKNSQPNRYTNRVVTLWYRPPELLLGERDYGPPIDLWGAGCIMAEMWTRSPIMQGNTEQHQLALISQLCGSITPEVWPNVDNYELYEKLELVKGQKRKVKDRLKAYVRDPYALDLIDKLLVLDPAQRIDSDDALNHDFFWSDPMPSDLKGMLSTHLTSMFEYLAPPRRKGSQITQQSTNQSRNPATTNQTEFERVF
# UniProt Q96RJ0, whole entry: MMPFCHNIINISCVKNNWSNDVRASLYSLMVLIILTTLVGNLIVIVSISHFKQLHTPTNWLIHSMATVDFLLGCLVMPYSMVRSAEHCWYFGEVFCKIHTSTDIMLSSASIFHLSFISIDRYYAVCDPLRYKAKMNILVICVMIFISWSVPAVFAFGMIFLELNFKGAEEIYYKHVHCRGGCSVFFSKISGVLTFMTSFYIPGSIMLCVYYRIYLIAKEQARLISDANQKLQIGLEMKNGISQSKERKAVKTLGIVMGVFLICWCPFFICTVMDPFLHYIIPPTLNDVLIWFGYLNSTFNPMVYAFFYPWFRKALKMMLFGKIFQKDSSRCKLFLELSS
# UniProt Q04609, whole entry: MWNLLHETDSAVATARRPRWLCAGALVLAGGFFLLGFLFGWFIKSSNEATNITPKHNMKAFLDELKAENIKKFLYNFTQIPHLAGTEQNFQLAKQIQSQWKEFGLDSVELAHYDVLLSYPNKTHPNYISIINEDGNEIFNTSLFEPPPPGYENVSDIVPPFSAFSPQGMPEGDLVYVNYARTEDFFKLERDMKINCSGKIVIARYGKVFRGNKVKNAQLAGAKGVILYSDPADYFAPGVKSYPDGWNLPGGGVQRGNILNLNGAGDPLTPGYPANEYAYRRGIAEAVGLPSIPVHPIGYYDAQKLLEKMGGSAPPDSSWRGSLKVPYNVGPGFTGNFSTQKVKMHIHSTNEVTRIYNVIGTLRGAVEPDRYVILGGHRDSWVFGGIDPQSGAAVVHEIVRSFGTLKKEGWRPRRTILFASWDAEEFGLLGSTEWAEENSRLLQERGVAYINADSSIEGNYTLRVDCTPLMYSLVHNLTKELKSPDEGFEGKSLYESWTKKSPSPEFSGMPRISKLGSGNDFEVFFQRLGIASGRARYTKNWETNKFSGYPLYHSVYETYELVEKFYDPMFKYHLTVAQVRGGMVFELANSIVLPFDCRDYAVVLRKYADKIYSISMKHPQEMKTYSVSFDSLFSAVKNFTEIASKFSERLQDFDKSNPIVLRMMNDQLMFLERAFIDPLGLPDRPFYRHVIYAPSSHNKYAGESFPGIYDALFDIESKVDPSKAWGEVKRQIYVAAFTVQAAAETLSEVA
# UniProt Q6P5Z2, whole entry: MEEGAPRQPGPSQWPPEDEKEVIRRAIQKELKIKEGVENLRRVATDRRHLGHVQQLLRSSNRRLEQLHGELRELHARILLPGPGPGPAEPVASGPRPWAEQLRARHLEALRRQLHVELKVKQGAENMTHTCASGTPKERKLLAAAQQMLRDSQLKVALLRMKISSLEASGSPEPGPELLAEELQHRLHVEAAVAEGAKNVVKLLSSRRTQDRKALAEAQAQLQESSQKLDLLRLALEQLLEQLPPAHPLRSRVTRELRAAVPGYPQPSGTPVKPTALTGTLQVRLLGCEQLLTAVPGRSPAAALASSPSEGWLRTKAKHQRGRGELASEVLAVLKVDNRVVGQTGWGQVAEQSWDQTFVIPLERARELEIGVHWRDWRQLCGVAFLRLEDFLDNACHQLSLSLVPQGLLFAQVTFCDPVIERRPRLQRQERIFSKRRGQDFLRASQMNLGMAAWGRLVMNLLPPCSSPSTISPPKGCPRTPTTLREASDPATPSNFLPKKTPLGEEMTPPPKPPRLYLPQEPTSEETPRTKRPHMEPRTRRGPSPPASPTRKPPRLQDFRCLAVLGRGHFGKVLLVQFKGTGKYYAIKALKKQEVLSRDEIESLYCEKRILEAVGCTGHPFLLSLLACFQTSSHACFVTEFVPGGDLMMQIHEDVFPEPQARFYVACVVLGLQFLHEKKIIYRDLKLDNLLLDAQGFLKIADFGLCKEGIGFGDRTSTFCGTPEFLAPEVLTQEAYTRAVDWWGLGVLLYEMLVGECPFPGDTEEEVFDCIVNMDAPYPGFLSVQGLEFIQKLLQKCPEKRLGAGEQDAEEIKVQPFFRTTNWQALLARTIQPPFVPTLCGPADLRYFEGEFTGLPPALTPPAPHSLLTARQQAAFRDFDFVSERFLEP
# UniProt P05067, whole entry, looked up: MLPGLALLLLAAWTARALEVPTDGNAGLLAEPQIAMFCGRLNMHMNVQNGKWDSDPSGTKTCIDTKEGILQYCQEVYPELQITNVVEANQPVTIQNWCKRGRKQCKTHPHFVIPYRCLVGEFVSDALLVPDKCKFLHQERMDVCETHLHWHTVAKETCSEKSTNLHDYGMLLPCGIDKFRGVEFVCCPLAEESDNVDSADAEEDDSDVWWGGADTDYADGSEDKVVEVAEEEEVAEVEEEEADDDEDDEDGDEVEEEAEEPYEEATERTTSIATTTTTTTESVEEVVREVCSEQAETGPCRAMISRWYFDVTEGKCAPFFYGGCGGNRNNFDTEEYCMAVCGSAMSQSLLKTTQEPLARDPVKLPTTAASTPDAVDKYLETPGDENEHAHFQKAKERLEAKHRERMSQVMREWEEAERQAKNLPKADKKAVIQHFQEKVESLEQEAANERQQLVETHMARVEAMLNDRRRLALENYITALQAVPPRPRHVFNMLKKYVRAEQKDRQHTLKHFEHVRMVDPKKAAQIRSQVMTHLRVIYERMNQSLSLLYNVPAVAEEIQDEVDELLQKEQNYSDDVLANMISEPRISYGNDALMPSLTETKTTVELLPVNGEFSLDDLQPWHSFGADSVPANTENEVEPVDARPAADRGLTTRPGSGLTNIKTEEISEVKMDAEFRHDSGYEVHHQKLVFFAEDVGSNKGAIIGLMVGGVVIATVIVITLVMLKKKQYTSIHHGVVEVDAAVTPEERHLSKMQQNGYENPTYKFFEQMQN
# UniProt Q9Y3Z3, whole entry: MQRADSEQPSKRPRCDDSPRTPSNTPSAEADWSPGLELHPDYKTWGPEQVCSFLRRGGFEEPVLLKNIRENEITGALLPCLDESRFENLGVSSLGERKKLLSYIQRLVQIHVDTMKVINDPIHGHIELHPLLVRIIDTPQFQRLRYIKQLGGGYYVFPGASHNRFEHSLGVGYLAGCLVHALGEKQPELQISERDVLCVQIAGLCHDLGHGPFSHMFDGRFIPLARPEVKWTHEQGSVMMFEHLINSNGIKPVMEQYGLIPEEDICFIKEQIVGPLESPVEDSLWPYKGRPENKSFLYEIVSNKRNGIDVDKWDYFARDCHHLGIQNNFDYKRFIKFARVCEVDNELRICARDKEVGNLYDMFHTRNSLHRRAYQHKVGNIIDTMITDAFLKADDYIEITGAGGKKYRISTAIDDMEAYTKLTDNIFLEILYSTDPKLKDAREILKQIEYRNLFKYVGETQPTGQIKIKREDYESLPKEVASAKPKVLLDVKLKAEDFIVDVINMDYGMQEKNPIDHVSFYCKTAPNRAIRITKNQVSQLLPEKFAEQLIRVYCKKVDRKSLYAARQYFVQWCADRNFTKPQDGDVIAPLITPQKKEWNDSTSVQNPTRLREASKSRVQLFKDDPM
# UniProt P33176, whole entry, looked up: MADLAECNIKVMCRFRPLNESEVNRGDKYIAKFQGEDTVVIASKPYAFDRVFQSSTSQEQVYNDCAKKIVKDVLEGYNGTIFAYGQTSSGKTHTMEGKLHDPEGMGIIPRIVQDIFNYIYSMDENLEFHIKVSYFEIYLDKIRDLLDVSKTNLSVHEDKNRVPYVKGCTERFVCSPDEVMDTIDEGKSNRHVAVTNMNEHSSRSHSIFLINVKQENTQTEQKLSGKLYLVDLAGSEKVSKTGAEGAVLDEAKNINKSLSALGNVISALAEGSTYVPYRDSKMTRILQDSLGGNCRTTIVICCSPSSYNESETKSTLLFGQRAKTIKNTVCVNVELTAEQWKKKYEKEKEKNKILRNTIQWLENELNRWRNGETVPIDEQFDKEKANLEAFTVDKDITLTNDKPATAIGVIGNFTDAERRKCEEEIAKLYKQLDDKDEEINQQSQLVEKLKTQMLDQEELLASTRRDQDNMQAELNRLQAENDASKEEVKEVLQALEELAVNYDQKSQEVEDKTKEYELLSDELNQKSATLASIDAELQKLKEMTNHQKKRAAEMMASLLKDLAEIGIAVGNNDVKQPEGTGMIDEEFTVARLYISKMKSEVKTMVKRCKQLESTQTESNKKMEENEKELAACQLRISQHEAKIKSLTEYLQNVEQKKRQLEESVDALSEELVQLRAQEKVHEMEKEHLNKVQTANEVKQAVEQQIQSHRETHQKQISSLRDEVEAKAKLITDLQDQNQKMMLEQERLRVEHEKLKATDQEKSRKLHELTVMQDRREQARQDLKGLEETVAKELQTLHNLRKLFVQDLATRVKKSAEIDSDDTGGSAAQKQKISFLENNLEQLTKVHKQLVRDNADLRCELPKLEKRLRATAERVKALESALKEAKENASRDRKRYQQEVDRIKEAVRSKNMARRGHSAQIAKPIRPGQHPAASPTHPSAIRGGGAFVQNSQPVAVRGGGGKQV
# Compare with care: the assays were run in different laboratories. Values joined by “and” are separate records of one study, mostly repeats; a detail may differ. Numbers after ± are the reported error.
Compound,target or system,test,system,setting,how to read,measurement,value
COC(=O)[C@@H]1C(C=Nc2cncnc2N)=Cc2cc3c(cc2[C@H]1c1cc(OC)c(OC)c(OC)c1)OCO3,Leishmania infantum,Alamar Blue,HepG2,,baseline: CC50 HepG2 over EC50 amastigotes,selectivity index,0.5
CCOC(=O)/C=C/CNCCCCN1c2ccccc2CCc2ccc(Cl)cc21,"E3 ubiquitin-protein ligase NEDD4 (Homo sapiens, UniProt P46934)","inhibitor, Ub-TR-FRET",,"0.01524 µM, 1 h preincubation, HECT domain, with: ATP 2 mM",higher = more ubiquitination,ubiquitination TR-FRET signal AUC,147000 a.u. and 96900 a.u. and 91700 a.u. and 146000 a.u. and 90900 a.u. and 143000 a.u.
O=C(Nc1cccc(-c2nc3ccccc3s2)c1)c1ccc(N2CCOCC2)cc1,"Moesin, with CD44 (Homo sapiens, UniProt P26038)","MSN-CD44 interaction, inhibitor, TR-FRET",,with: CD44,,IC50,> 100 µM
CNC(=O)[C@@H](NC(=O)[C@@H]1CN(C(=O)c2cnn(Cc3ccccc3)c2)CC12CN(C(=O)[C@H]1CC1(C)C)C2)[C@@H](C)OCCC1CCCCC1,"Cyclin-dependent kinase 2/cyclin E1 (Homo sapiens, UniProt P24864+P24941)","kinase activity, inhibitor, ADP-Glo",,,,IC50,0.13 µM
CC(=NNC(=N)N)c1ccc(NC(=O)c2c[nH]c3ccccc23)cc1,"Ribosomal protein S6 kinase alpha-3 (RPS6KA3, Homo sapiens, UniProt P51812)","kinase activity, inhibitor, IMAP fluorescence polarisation",,60 min,,IC50,> 100 µM
O=C(c1ccc(O)c(I)c1)N1Cc2ccccc2C1,"Heat shock protein HSP 90-beta (HSP90AB1, Homo sapiens, UniProt P08238)","binding, fluorescence polarization",,with: FITC-geldanamycin tracer,,IC50,> 100 µM
Cc1ncsc1-c1ccc([C@H](C)NC(=O)[C@@H]2C[C@@H](O)CN2C(=O)[C@@H](NC(=O)CCCCCCC(=O)N2CCN(C[C@]3(C)CCC(c4ccc(Cl)cc4)=C(CN4CCN(c5ccc(C(=O)NS(=O)(=O)c6ccc(N[C@H](CCN7CCOCC7)CSc7ccccc7)c(S(=O)(=O)C(F)(F)F)c6)cc5)CC4)C3)CC2)C(C)(C)C)cc1,,refers to: Cdkn2a,"naturally aged mice, kidney","intraperitoneal, 5 mg/kg every 3 days",,mRNA level,no effect
CN1CC[C@H](c2c(O)cc(O)c3c(=O)cc(-c4ccc(Cl)cc4)oc23)[C@H](O)C1,"Cyclin-dependent kinase 9, with cyclin T1 (CDK9, Homo sapiens, UniProt P50750)",inhibitor,,"with cyclin T1, GST-CTD substrate",,IC50,0.0123 µM
O=C(CSc1ccc(Br)cc1)Nc1ccc2nc(SCC(=O)NC3CC3)sc2c1,"Estrogen receptor (ESR1, Homo sapiens, UniProt P03372)","reporter gene, antagonist",HEC-1 transfected ERα luciferase reporter,,,IC50,20 to 50 µM
Cc1cccc(NC(=O)CSc2nc(-c3ccc(F)cc3)cc(C(F)(F)F)c2C#N)c1,"Trace amine-associated receptor 1 (TAAR1, Homo sapiens, UniProt Q96RJ0)",,,,,IC50,> 10 µM
O=C(O)CCC(NS(=O)(=O)c1cccs1)C(=O)O (centres unmarked),"Glutamate carboxypeptidase 2 (FOLH1, Homo sapiens, UniProt Q04609)","enzyme activity, inhibitor, HPLC",,"15 min, pH 7.4, 37 °C, 1% Triton X-100, with: 10 mM glutamate dipeptide substrate",,IC50,> 100 µM
COC(=O)[C@@H]1C(c2nc3ccccc3o2)=Cc2cc3c(cc2[C@H]1c1cc(OC)c(OC)c(OC)c1)OCO3,Leishmania infantum,Alamar Blue,HepG2,,baseline: CC50 HepG2 over EC50 amastigotes,selectivity index,2
O=C(O)c1cc(C(=O)N[C@@H](Cc2ccc(O)cc2)C(=O)O)cc([C@H]2CCN[C@@H]2C(=O)O)c1,"Glutamate receptor ionotropic, NMDA 2D, with GluN1 (Rattus norvegicus, UniProt Q62645)","ion current, antagonist, two-electrode voltage clamp",Xenopus oocytes,"GluN1/GluN2D, with: glycine 100 µM and glutamate 1 µM",,IC50,25.2 ± 1.46 µM
N#Cc1cccc(C(=O)N2C[C@H](O)C[C@H]2C(=O)NCc2ccc(-c3cnco3)cc2)c1,"von Hippel-Lindau disease tumor suppressor, with elongin B, C (VHL, Homo sapiens, UniProt P40337)","binding, fluorescence polarization",,"1% DMSO, with: FAM-HIF1α peptide tracer",,IC50,47.3 ± 1.3 µM
Nc1ncc(-c2ccc3ncnc(N4CCc5cc(F)c(Cl)cc54)c3c2)cn1,,,"CD1 mouse, plasma","oral, 100 mg/kg",,dose-normalised AUC(0-t),265 mg·h/mL
CCOC(=O)C1=C(C)NC2=C(C(=O)CC(C)(C)C2)C1c1ccc(OCC(=O)NN=Cc2cccc(C=O)c2)cc1OCC(=O)NN=Cc1cccc(C=O)c1 (centres unmarked),Pseudomonas aeruginosa,,DSM 50070,"concentration not given, 24 h",,inhibition zone diameter,2.3 ± 0.1 mm
COc1cc2nccc(Nc3ccc(NC(=O)c4ccc(C(C)(C)C)cc4)c(O)c3)c2cc1OC,"Serine/threonine-protein kinase N3 (PKN3, Homo sapiens, UniProt Q6P5Z2)","binding, split-luciferase",,,,IC50,> 50 µM
COc1cccc(CCN2CCN(c3cc(N4CCCC4)nc(N4CCCC4)n3)CC2)c1,"Caspase-1 (CASP1, Homo sapiens, UniProt P29466)","enzyme activity, inhibitor",,"30 min preincubation, with: Ac-WEHD-AMC 10 µM",,IC50,0.108 ± 0.013 µM
COc1ccc2nc3ccc(OC)cc3c(SCCN)c2c1,"Dual specificity tyrosine-phosphorylation-regulated kinase 2 (DYRK2, Homo sapiens, UniProt Q92630)",inhibitor,,with: Woodtide peptide,,IC50,0.29 µM
N#Cc1ccc2[nH]cc(/C=C/c3ccncc3)c2c1,"Amyloid-beta precursor protein, amyloid-beta peptide (APP, Homo sapiens, UniProt P05067)","Aβ42 oligomerisation, ELISA",,,,IC50,14.5 µM
Nc1nc2c(ncn2COCCNC(=O)c2cc3cc(Br)ccc3c(Br)c2O)c(=O)[nH]1,"Deoxynucleoside triphosphate triphosphohydrolase SAMHD1 (SAMHD1, Homo sapiens, UniProt Q9Y3Z3)","ssRNA binding, fluorescence anisotropy",,"1 µM protein, with: FAM-labelled 32-mer ssRNA probe",,IC50,~25 µM
N#Cc1ccc2[nH]cc(/C=C/c3c[nH]c4ccccc34)c2c1,"Indoleamine 2,3-dioxygenase 1 (IDO1, Homo sapiens, UniProt P14902)","enzyme activity, inhibitor",,,,IC50,1.2 µM
O=C(Nc1ccc(Cl)cc1)C(NS(=O)(=O)c1cccs1)c1ccccc1Cl (centres unmarked),"Uracil nucleotide/cysteinyl leukotriene receptor, long isoform (GPR17, Homo sapiens, UniProt Q13304)","calcium mobilization, antagonist",1321-N1,,,IC50,17.9 ± 0.73 µM
CN1CCN(Cc2ccc(NC(=O)c3cncc(C#Cc4cncc5ncccc45)c3)cc2C(F)(F)F)CC1,"Kinesin-1 heavy chain/ Tyrosine-protein kinase receptor RET (RET/KIF5B, Homo sapiens, UniProt P07949+P33176, G810S)","cell viability, inhibitor, CellTiter-Glo",Ba/F3 KIF5B-RET G810S,,,IC50,0.0106 ± 0.00035 µM
COc1cc(C=C(C(=O)/C=C/c2cc(OC)c(OC)c(OC)c2)C(=O)/C=C/c2cc(OC)c(OC)c(OC)c2)cc(Br)c1O,"Ubiquitin carboxyl-terminal hydrolase BAP1 (BAP1, Homo sapiens, UniProt Q92560)",inhibitor,,with: Ub-AMC substrate,,IC50,0.2 ± 0.0273 µM
COC(=O)[C@@]1(C)C=C(C(=O)Nc2cccc(C(=O)NC34CC(Nc5nccc(-c6cccnc6)n5)(C3)C4)c2)C(=O)CC1,"Mitogen-activated protein kinase 10 (MAPK10, Homo sapiens, UniProt P53779)","enzyme activity, inhibitor",,0.02032 µM,,remaining activity,0.574 fraction of control
